Experimental data of several laboratories.
Every numbered part comes from another study and shows a few of its results, in no order.

Set 1
Cell line: HEK-293T
Read-out: pseudovirus infection
Organism: VSV pseudotyped with SARS-CoV-2 spike
Concentration: 10 µM
Time: 16 h
Relative to: vehicle-treated
SMILES | GFP-positive cells [%]
N#Cc1ccccc1-c1cc(-c2ccccn2)cn(-c2ccccc2)c1=O | 95.6
CC(=O)OCC(CCn1cnc2cnc(N)nc21)COC(C)=O | 96.5
CN(C)CCc1c[nH]c2ccc(Cn3cncn3)cc12 | 107

Set 2
Target: Ras GTPase-activating protein-binding protein 1, C-terminal RGG region (G3BP1, Homo sapiens, UniProt Q13283)
Sequence of UniProt Q13283 (whole entry, looked up): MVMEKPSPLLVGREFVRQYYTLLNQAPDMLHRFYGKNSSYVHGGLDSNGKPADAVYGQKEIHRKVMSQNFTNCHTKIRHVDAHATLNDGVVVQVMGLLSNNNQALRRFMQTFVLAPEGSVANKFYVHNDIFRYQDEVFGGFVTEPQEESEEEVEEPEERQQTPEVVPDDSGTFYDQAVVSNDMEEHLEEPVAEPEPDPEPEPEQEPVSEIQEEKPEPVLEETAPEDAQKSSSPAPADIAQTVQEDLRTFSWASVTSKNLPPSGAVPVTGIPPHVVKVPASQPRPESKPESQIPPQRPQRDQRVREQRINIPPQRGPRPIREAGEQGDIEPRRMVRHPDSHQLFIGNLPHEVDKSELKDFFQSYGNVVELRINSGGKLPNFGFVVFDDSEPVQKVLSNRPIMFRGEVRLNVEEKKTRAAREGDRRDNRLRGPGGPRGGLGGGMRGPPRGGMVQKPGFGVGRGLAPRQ
Technique: RNA Bind-n-Seq
Form: RNA
Sample: in vitro
Concentration: 1 µM
Setting: whole 134-nt RNA, ends assumed
Added: 150 mM KCl
Relative to: input library
Direction: higher = stronger binding
Shared flanks, not repeated: GGGAGUUCUACAGUCCGACGAUC … UGGAAUUCUCGGGUGUCAAGG
Oligonucleotide | log2 enrichment
UUUGCUGAUUUCUGGCUGGCGGAUCAGCUGAACAGCCUGUCAGUGAUACUGAUGGACCUGGAAUAUAUGAUCUGCUUCUACAGUUUGGAG | -2.44
CACAGACAACACGCACCCACACAGACACAGAGGGAAAAAGUUGGGAUGGGGACAGGGUGCACAGCAGGGCGGGGUAGGACCCCAGCCCCU | -0.531
CUCAAGUCCUGUGCUACACAUCGUAUGUACCGAAUCGGGAGGGAAAGGGUGGGAAAGUAUUAUGUUACGCCGUUCGGAUCUGCACUUCCA | 1.75
GUCCUGUGCUACACAUCGUAUGUACCGAAUCGGGGAAAAAGGGAAAAAGGGAAAAAGGAAAGUAUUAUGUUACGCCGUUCGGAUCUGCAC | -1.19
CAAGUCCUGUGCUACACAUCGUAUGUACCGAAUCGGGAAAGGGAAAAAGGGUGGGAAAGUAUUAUGUUACGCCGUUCGGAUCUGCACUUC | 1.76

Set 3
Target: Sal-like protein 4, full length isoform A (SALL4, Homo sapiens, UniProt Q9UJQ4, residues 1-1053)
Sequence of UniProt Q9UJQ4 (whole entry, looked up): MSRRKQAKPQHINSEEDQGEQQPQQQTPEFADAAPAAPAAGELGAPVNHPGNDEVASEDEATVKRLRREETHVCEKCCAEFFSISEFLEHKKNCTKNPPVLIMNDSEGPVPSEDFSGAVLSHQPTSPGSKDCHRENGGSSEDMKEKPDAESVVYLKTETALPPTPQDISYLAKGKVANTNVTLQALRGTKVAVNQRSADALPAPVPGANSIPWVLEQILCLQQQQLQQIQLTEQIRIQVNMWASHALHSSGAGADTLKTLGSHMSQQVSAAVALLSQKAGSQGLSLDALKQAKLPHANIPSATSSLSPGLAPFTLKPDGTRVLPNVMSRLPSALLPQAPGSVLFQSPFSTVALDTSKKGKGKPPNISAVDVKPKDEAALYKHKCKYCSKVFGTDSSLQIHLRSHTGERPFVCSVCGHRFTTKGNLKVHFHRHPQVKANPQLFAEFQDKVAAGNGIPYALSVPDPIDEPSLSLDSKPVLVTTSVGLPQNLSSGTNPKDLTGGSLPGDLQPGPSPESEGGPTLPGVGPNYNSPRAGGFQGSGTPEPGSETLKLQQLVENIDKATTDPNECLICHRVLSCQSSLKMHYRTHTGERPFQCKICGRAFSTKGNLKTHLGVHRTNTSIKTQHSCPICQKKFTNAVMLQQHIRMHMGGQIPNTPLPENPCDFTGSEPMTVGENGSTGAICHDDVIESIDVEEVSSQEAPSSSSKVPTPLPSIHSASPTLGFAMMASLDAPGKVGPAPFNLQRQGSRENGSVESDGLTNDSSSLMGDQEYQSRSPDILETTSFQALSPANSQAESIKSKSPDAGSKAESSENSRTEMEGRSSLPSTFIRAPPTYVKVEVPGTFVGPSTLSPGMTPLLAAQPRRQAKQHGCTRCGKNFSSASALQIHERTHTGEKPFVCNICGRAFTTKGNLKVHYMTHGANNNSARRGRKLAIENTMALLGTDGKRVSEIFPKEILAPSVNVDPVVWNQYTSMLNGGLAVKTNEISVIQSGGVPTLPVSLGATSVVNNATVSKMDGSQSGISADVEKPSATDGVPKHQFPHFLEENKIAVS
Technique: universal PBM
Form: double-stranded DNA, one strand shown
Sample: in vitro
Concentration: 600 nM
Setting: 8-mer, flanks averaged, mean of replicates
Direction: higher = stronger binding
Oligonucleotide | E-score
TCCCCCAA | -0.212
TCTGAGAA | 0.145
AAGGTCCC | -0.256
CCCACAAA | 0.121
AGCAGGGA | -0.194
CGATAACC | 0.0227
ATAATACA | 0.41
AAGATATC | 0.211

Set 4
Target: Replicase polyprotein 1ab, main protease (rep, Severe acute respiratory syndrome coronavirus 2, UniProt P0DTD1)
Read-out: enzyme activity
Mode: inhibitor
Concentration: 20 µM
Setting: hit confirmation, no DTT
Structure (SMILES) | inhibition
CN1C(=O)C(N2CCCCC2)S/C1=C\C(=O)O (stereo not shown) | 72.9%
O=[N+]([O-])C(Br)(CO)CO | 100%
O=C(O)CCCCCCCCCCCCCCc1ccc(I)cc1 | 98.4%

Set 5
Target: Replicase polyprotein 1ab, nsp13 helicase (rep, Severe acute respiratory syndrome coronavirus 2, UniProt P0DTD1)
Mode: inhibitor
Concentration: 20 µM
Compound | inhibition [%]
NC[C@H]1O[C@H](O[C@H]2[C@H](O)[C@@H](O[C@H]3O[C@H](CO)[C@@H](O)[C@H](N)[C@H]3O)[C@H](N)C[C@@H]2N)[C@H](O)[C@@H](O)[C@@H]1O | 5.42
NC[C@H](CC(=O)O)c1ccc(Cl)cc1 | 6.27
CO[C@]12C[C@@H](COC(=O)c3cncc(Br)c3)CN(C)[C@@H]1Cc1cn(C)c3cccc2c13 | 3.81
C=C1C[C@]23C[C@@]1(O)CC[C@H]2[C@@]12C=C[C@H](O)[C@@](C)(C(=O)O1)[C@H]2[C@@H]3C(=O)O | -4.04
CCCCCCCCCCCCc1ccc(S(=O)(=O)Nc2nncs2)cc1 | 5.79
CC[C@H](C)C(=O)O[C@H]1C[C@H](O)C=C2C=C[C@H](C)[C@H](CC[C@@H](O)C[C@@H](O)CC(=O)O)[C@H]21 | 6.27
C[C@@H](N)[C@@H](O)c1ccccc1 | 4.15
O=[N+]([O-])c1ccc2c(c1)S(=O)(=O)C=C2 | 18.1
O=C(Nc1cc(C(F)(F)F)ccc1N1CCCCC1)c1ccncc1 | 1.22
CN[C@@H](C)[C@H]1[C@H](O)C[C@@]2(C)[C@@H]3CC[C@H]4C(C)(C)[C@@H](NC)CC[C@@]45C[C@@]35CC[C@]12C | 11.8
Cc1cn2c(N)c(Cl)cc(C(=O)NCC3CCN(CC(C)C)CC3)c2n1 | 8.93
C=CCNC(=O)c1cc([N+](=O)[O-])cc2c(=O)[nH]c(Nc3ccc(Cl)c(Cl)c3)nc12 | 3.54
CCC[C@H](NC(=O)/C(C#N)=C/c1cccc(Br)n1)c1ccccc1 | 67.5
O=C(N[C@H]1CN2CCC1CC2)c1ccc(Cl)cc1 | 0.69
Cc1cc(-c2nncc3c(C(C)(C)C)c(OCc4ncnn4C)nn23)no1 | -2.74

Repeated from above (set 4):
Structure (SMILES) | inhibition
CN1C(=O)C(N2CCCCC2)S/C1=C\C(=O)O (stereo not shown) | 72.9%
O=[N+]([O-])C(Br)(CO)CO | 100%
O=C(O)CCCCCCCCCCCCCCc1ccc(I)cc1 | 98.4%
